Results from different studies.
Every numbered part comes from another study and shows a few of its results, in no order. Positions count from the first letter of the parent shown.

Set 1 — technique: DHFR PCA, deep sequencing; matrix: yeast; added: (+)-ABA 1.4 µM; reference: wild-type fitted maximum; reading: higher = stronger binding
Target: ABI1, truncated, D143A, DHFR fusion (Arabidopsis thaliana)
Setting: methotrexate growth selection, single substitutions
Starting sequence: PYL1, truncated, DHFR fusion (Arabidopsis thaliana); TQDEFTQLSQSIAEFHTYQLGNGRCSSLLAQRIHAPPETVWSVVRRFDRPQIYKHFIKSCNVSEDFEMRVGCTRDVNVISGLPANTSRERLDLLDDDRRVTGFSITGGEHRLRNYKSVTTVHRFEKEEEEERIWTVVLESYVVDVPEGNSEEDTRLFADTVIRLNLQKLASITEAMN
Change	relative binding score
Y53R	-5.1%
K58E	22.9%
V145N	-49.5%
I33P	7.08%
R98H	27.4%
S171M	47%
K116P	-8.87%
L91N	-1.4%
G107C	11.4%
R113M	51.9%
R123S	75.7%
G108E	-8.71%
T86R	33.6%
R99M	95.2%
N149F	-19.2%
N61P	-1.23%
P50M	-10.8%

Set 2 — technique: protein binding microarray; molecule type: double-stranded DNA, one strand shown; matrix: in vitro; tested at: not given; reference: not given; reading: higher = stronger binding
Target: Histone acetyltransferase KAT6A, winged helix 1, GST fusion (KAT6A, Homo sapiens, UniProt Q92794, residues 1-85)
Setting: 8-mer, flanks averaged, mean of 2 arrays, mostly near background
Target sequence (chain): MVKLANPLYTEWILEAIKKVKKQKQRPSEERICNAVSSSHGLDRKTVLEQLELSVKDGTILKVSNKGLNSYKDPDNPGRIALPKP
Oligonucleotide	E-score
AGGGCCAC	-0.128
GTGTACGA	0.0754
AGAGAGAG	-0.272
AATAGTTG	-0.0898
CCATAGCG	0.121
AGAGCTTC	-0.193
CCATCACC	-0.0624
GGCCGAGA	0.175
AGGTGAGA	-0.139
AGTAGCCC	0.0531
GCACTTAC	0.14
AAGAGTAA	-0.0807
CTAATTGA	-0.0684
ACGGAACA	0.162
TGCCTGAA	-0.219
TCTGGTAA	-0.118
GCTGCTGA	-0.0814
CCTTCTGC	-0.0977
ACGCAACA	0.0549
CGGACCAG	0.14
TTGCGCAA	0.228
CAAAAGCA	-0.0815
AGCTCGGC	0.268
AGATACAC	-0.0408
CTGCAATC	-0.106

Set 3 — target: CCNB3, cyclin fold, Cln2 fusion (human); technique: yeast growth competition, sequencing; matrix: yeast; setting: weak parent motif; reference: not given; reading: higher = stronger binding
Starting sequence: CUX1 docking peptide (human); SRIRRELFIEEIQ; partner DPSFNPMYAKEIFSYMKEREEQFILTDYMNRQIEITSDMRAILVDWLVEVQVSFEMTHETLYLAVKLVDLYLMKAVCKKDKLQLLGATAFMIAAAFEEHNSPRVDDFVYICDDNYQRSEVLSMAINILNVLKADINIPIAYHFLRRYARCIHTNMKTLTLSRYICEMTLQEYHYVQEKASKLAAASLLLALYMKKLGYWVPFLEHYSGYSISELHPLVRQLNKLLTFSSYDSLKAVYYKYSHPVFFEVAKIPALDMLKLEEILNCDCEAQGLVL
Change	normalised enrichment score
SRIRRELFIAEIQ [E10A]	0.366
SRIRRELAIEEIQ [F8A]	0.509
SRIRRELFAEEIQ [I9A]	-0.153
SRIRRELLIEEIQ [F8L]	0.131
SRIRRELFIEAIQ [E11A]	0.509
SRIRRALFIEEIQ [E6A]	1.11
SRIRREAFIEEIQ [L7A]	-0.204

Set 4 — technique: protein-binding microarray; molecule type: double-stranded DNA, one strand shown; matrix: in vitro; tested at: 250 nM; setting: 60-bp whole probe; added: salmon DNA 0.4 mg/ml; reference: random background probes; reading: higher = stronger binding; all sequences stand within: GCCTAGCAC … GTCTTGATTCGCTTGACGCTGCTG
Target: Interferon regulatory factor 7, full length, phosphomimetic (IRF7, Homo sapiens, UniProt Q92985, residues 1-503, S101K/S471D/S472D/S475D/S476D/S477D/S483D/S484D/S487D)
Target sequence (chain): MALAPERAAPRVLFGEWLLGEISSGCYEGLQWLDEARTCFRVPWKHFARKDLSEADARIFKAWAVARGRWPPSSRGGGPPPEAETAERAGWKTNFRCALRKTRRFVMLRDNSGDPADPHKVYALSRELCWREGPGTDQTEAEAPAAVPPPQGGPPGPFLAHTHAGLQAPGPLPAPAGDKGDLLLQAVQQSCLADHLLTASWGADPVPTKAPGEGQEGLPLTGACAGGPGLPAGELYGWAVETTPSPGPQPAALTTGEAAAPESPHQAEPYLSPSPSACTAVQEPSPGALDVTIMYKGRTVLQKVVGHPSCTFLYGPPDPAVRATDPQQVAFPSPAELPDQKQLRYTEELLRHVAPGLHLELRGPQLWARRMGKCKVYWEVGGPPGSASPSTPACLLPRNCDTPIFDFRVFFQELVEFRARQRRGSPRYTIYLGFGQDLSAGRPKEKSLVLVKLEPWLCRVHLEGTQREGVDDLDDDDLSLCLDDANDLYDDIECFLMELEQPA
Oligonucleotide	log fluorescence [z-score]
TCACTTTACTCACTCGGACTGTGCTAG	1.3
TTAGGTCGCCTTATCCTTTAGTGCTAG	-0.102
TTAGATTTCGGGTGTCGATTAGTGCTA	0.576
TCAGTTTTGTGTCTGGGACTGTGCTAG	0.584
GACGAACTGAGTCTCGGGACGTGCTAG	-0.0282
TCATATATACAAACTAAGACTGTGCTA	0.582
TACGGACTGCTTATCCTGACGTGCTAG	-0.33
TTAGGTTTCGCCTTTCGGTTAGTGCTA	8.38
TCACAAGTCTTGTTTTACACTGTGCTA	1.17
TTAGGTCTCCGACTGCTTTAGTGCTAG	0.000945
TCAAATTTCCATTTTCTACTGTGCTAG	1.4
TTAGGTTCCGGGTTCGGTTAGTGCTAG	4.53
ACGTAGAAGGAAGAAGCACGGTGCTAG	-0.424
TTAGGTATCCTACTTCTTTAGTGCTAG	0.257
AGCAGGGGCGCAGGTAGGTGGTGCTAG	-1.22
GACGGTTTCGACACTCGGGACGTGCTA	4.82
TTAGGTATTGGTATCGGTTAGTGCTAG	1.32
TCAAGGTTGTTTCTAATACTGTGCTAG	-0.138
TTAGGTATCGGTATCGGGTAGTGCTAG	2.03

Set 5 — target: DBP, bZIP domain (human); technique: DHFR protein complementation; matrix: yeast; reference: wild-type JUN-FOS pair; reading: higher = stronger binding
Setting: single substitutions, most at no-binding floor
Starting sequence: JUN, bZIP domain (human); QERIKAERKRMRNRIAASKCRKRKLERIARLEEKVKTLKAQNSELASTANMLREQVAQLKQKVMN; partner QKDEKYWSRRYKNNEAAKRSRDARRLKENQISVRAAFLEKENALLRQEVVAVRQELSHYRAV
Change	binding fitness
V56N	-1.61 natural log
A40V	-1.27 natural log
Q41I	-1.52 natural log
N42W	-1.59 natural log
A57Q	-1.2 natural log
M51G	-1.52 natural log
E32G	-1.39 natural log
E54T	-1.39 natural log
L59W	-1.42 natural log
E33H	-1.25 natural log
Q41S	-1.47 natural log
E33R	-1.51 natural log
L45R	-1.47 natural log
L52S	-1.49 natural log
T37P	-1.51 natural log
S47K	-1.59 natural log
N42M	-1.39 natural log
M51S	-1.37 natural log
Q41C	-1.36 natural log
K34W	-1.48 natural log
R30L	-1.36 natural log
Q41W	-1.42 natural log
K36W	-1.52 natural log

Other studies, line by line
Substance	target	test	system	setting	how to read	endpoint	value
PhoQ, residues 284 288 289 292 302 303 SACGEM	PhoP, residues 12 14 15 18 19 LHSVQ (Escherichia coli, UniProt P23836)	Sort-seq, measured: YFP reporter	E. coli	PhoQ-PhoP variant library, added: 10 µM Mg2+	reference: high Mg2+ state, higher = stronger signaling	fold induction	0.993

For quick reference, copied from above (set 2):
Oligonucleotide	E-score
CCATCACC	-0.0624
AGGTGAGA	-0.139
CCTTCTGC	-0.0977
GCACTTAC	0.14
AGGGCCAC	-0.128
CTAATTGA	-0.0684
CGGACCAG	0.14
AGCTCGGC	0.268
AAGAGTAA	-0.0807
GGCCGAGA	0.175
CTGCAATC	-0.106
ACGGAACA	0.162
AGAGAGAG	-0.272
TGCCTGAA	-0.219
